Measured values gathered from unrelated publications.
Lines come from different studies, so protocols differ. “And” joins repeats or separate records; there may be more than shown. ± gives the spread as reported.
DRD3: D(3) dopamine receptor (DRD3, Homo sapiens, UniProt P35462)
Genome polyprotein NS3 helicase domain: Genome polyprotein, NS3 helicase domain (Hepatitis C virus genotype 1b, UniProt Q9WMX2)
PRKCB isoform beta-II: Protein kinase C beta type, isoform beta-II (PRKCB, Homo sapiens, UniProt P05771)
Glutamate receptor 2: Glutamate receptor 2 (Homo sapiens, UniProt P42262)
CDK2: Cyclin-dependent kinase 2 (CDK2, Homo sapiens, UniProt P24941)
KCNQ3/KCNQ2: Voltage-gated potassium channel, KQT; KCNQ2(Kv7.2)/KCNQ3(Kv7.3) (KCNQ3/KCNQ2, Homo sapiens, UniProt O43525+O43526)

| SMILES | target or system | test | test system | setting | how to read | endpoint | result |
| --- | --- | --- | --- | --- | --- | --- | --- |
| CCc1nn(C)c2nc(-c3ccc(C(=O)O)cc3)nc(NCc3ccc(F)cc3)c12 | cGMP-inhibited 3',5'-cyclic phosphodiesterase 3A (PDE3A, Homo sapiens, UniProt Q14432) | enzyme activity |  | 10 µM, with: [3H]cAMP |  | inhibition | 30.1% |
| O=C1C(SCCO)=C(SCCO)C(=O)c2ccccc21 | Coagulation factor XIII A chain (F13A1, Homo sapiens, UniProt P00488) | crosslinking activity |  | 15 µM, without DTT |  | inhibition | inhibited |
| COc1cccc(C2NCCc3cc(O)c(O)cc32)c1 (centres unmarked) | tyrosinase | enzyme activity, inhibitor |  | 100 µM, with: levodopa |  | inhibition | 27.9 ± 1.19% |
| CCS(=O)(=O)c1nc(S(=O)(=O)c2ccccc2Cl)c(N2CCN(C)C(=O)[C@H]2C)s1 | DRD3 |  |  | 10 µM |  | inhibition | 1.18% |
| O=C(NO)c1cc(F)cc(OS(=O)(=O)Oc2ccccc2)c1 | Histone deacetylase 3, with NCoR2 DAD (HDAC3, Homo sapiens, UniProt O15379) | enzyme activity, fluorogenic |  | 10 µM |  | inhibition | 17% |
| COc1ccc2c(c1)C(=O)N(CCN1CCN(c3ccccc3OC)CC1)C2 | DRD3 | radioligand binding |  | concentration not given, with: [3H]N-methylspiperone |  | inhibition | 98.1% |
| CCCn1c(=O)c2[nH]c(-c3ccc(S(=O)(=O)O)cc3)nc2n(CCC)c1=O | Genome polyprotein NS3 helicase domain | DNA binding, inhibitor | hepatitis C virus | 100 µM, with: Cy5-dT15 DNA |  | inhibition | 0% |
| CNC(=O)c1cc2c(Oc3ccc(NC(=O)C4(C(=O)Nc5ccc(F)cc5)CC4)cc3)ccnc2cc1OC | Vascular endothelial growth factor receptor 2 (Mus musculus, UniProt P35918) | VEGFR2 phosphorylation | mouse, Hs746T xenograft, lung | 30 mg/kg single dose, 4 h, with: human VEGF |  | inhibition | 100% |
| CCCCCC(O)c1cccc(OCc2ccc3ccccc3n2)c1 (centres unmarked) | Genome polyprotein NS3 helicase domain | DNA binding, inhibitor | hepatitis C virus | 100 µM, with: Cy5-dT15 DNA |  | inhibition | 1% |
| CN(C(=O)n1cnc(-c2ccc[n+]([O-])c2)c1)C1CCCCC1 | Voltage-dependent N-type calcium channel subunit alpha-1B (Homo sapiens, UniProt Q00975) |  |  | 10 µM |  | inhibition | -3.12% |
| CCCCCCCCCCCC1NCCc2cc(O)c(O)cc21 (centres unmarked) | tyrosinase | enzyme activity, inhibitor |  | 100 µM, with: levodopa |  | inhibition | 9.18 ± 3.94% |
| COc1cc2c(cc1OC)C(=O)N(CCCCN1CCN(c3ccccc3OC)CC1)C2 | DRD3 | radioligand binding |  | concentration not given, with: [3H]N-methylspiperone |  | inhibition | 100% |
| CNCC(O)c1ccc(O)c(O)c1.Cl (racemic) | Genome polyprotein NS3 helicase domain | DNA binding, inhibitor | hepatitis C virus | 100 µM, with: Cy5-dT15 DNA |  | inhibition | 0% |
| COc1cc2ncnc(Nc3ccc(Oc4ccccc4)cc3C)c2cc1OC | PRKCB isoform beta-II | kinase activity, inhibitor |  | 1 µM |  | inhibition | 6% |
| CC(C)NCC(O)COc1cccc2ccccc12 (centres unmarked) | Glutamate receptor 2 | ion current, negative allosteric modulator, SyncroPatch patch clamp | HEK293 | 3 µM |  | inhibition | 2% |
| Oc1cc2c(cc1O)C(CCc1ccccc1)NCC2 (centres unmarked) | tyrosinase | enzyme activity, inhibitor |  | 100 µM, with: levodopa |  | inhibition | 23.5 ± 0.47% |
| Cc1nn(-c2nc3c(F)cc(F)cc3s2)c(O)c1C(c1ccc(C(F)(F)F)cc1)c1c(C)nn(-c2nc3c(F)cc(F)cc3s2)c1O | Cyclic GMP-AMP synthase (CGAS, Homo sapiens, UniProt Q8N884) | enzyme activity, inhibitor, PPiase-coupled |  | 12.5 µM, 1.5 h |  | inhibition | 48.6% |
| CC(=O)Nc1ccc(S(=O)(=O)Nc2c(C)nn(-c3ccccc3)c2C)cc1 | CDK2 | binding |  |  |  | Kd | > 100 µM |
| Cc1ccc(/C(=C\CN2CCCC2)c2ccccn2)cc1.Cl | Genome polyprotein NS3 helicase domain | DNA binding, inhibitor | hepatitis C virus | 100 µM, with: Cy5-dT15 DNA |  | inhibition | 1% |
| Cc1nc2sccn2c(=O)c1CCN1CCC(=C(c2ccccc2)c2ccc(F)cc2)CC1 | Diacylglycerol kinase alpha (Rattus norvegicus, UniProt P51556) | kinase activity, inhibitor | HEK293T cell lysate | 50 µM | reference: DMSO | inhibition | ~72% |
| Cc1cc(-c2ccnc3[nH]cc(F)c23)cc(F)c1[C@@]1(O)[C@H](C)CN(C(=O)CN)C[C@@H]1C | CDK11 and CDK8 | ATP probe binding, KiNativ, measured: Lys2 site | HEK293T cell lysate | 1 µM |  | inhibition | 23.1% |
| O=C(Nc1cccc2c(=O)cc(-c3nnn[nH]3)oc12)c1ccc(OCCCCc2ccccc2)cc1 | LRRC8A/LRRC8C (Homo sapiens, UniProt Q8IWT6+Q8TDW0, L134K/L136K) | ion current, whole-cell patch clamp | LRRC8-/- HCT cells | 3 µM, L134K/L136K mutant, +100 mV |  | inhibition | 81.1% and 59.1% and 73.2% and 73.7% and 62.2% and 76.1% |
| Cc1ccc(NS(=O)(=O)c2c(C(=O)N3CCC(F)(F)C3)c(C)nn2C)cc1Cl | DRD3 | β-arrestin recruitment, antagonist, PathHunter |  | with: dopamine EC80 |  | IC50 | > 100 µM |
| Oc1ccc(-c2nnc(CCCOc3ccc(Cl)cc3Cl)o2)c(F)c1 | 1-deoxy-D-xylulose-5-phosphate synthase (dxs, Deinococcus radiodurans, UniProt Q9RUB5) | enzyme activity, inhibitor |  | 60 µM |  | inhibition | 48.2 ± 3.4% |
| Cc1ccnc(OC[C@H]2CN(CC(=O)N3CCc4ccccc43)CCO2)c1 | DRD3 | radioligand binding |  | concentration not given, with: [3H]N-methylspiperone |  | inhibition | 2.5% |

| SMILES | target or system | test | test system | setting | how to read | endpoint | result |
| --- | --- | --- | --- | --- | --- | --- | --- |
| CC[C@@H]1[C@H](F)C(=O)N[C@@H]1COc1nccc2cc(C(N)=O)c(OC)cc12 | Calcium/calmodulin-dependent protein kinase type II subunit delta (CAMK2D, Homo sapiens, UniProt Q13557) | ATP-site probe binding, ActivX profiling | THP-1 cell lysate | 0.04 mM, Lys1 site |  | inhibition | 9.6% |
| NS(=O)(=O)c1ccc(NN=C2C(=O)Nc3ccc(C(=O)O)cc32)cc1 | CDK2 | average of ITC, Octet and Thermofluor |  | untagged protein |  | Kd | 0.232 µM |
| O=C1c2ccccc2CCCN1CCCCN1CCN(c2ccccn2)CC1 | DRD3 | radioligand binding |  | concentration not given, with: [3H]N-methylspiperone |  | inhibition | 99.1% |
| COc1cc(C2NCCc3cc(O)c(O)cc32)ccc1O (centres unmarked) | tyrosinase | enzyme activity, inhibitor |  | 100 µM, with: levodopa |  | inhibition | 12.8 ± 3.66% |
| Cn1cc(-c2ccc(-c3cncc(Cl)c3N3CCC4(CCNC4=O)CC3)cc2)cn1 | COLO 205 | microarray, measured: CTGF |  | concentration not given, 6 h | reference: untreated cells | fold change in expression | 1.5 |
| O=C1CN(C[C@@H](CO)NCc2c[nH]c3c(O)nc(O)nc23)S(=O)(=O)N1 | Hypoxanthine-guanine-xanthine phosphoribosyltransferase (Plasmodium falciparum, UniProt P20035) | enzyme activity, inhibitor, coupled IMPDH |  | up to 100 µM |  | inhibition | inactive |
| CC/C(=N\NC(=O)NCc1cccc(O)c1)c1ccc(O)c(C)c1O | PRKCB isoform beta-II | kinase activity |  | 0.1 µM |  | inhibition | 0.3% |
| Nc1c(Br)cc(Br)cc1CN[C@H]1CC[C@H](O)CC1 | Glutamate receptor 2 | ion current, negative allosteric modulator, SyncroPatch patch clamp | HEK293 | 3 µM |  | inhibition | 8% |
| O=C(O)C1CCCNC1 (racemic) | Genome polyprotein NS3 helicase domain | DNA binding, inhibitor | hepatitis C virus | 100 µM, with: Cy5-dT15 DNA |  | inhibition | 0% |
| CNc1cc(Oc2cc(C(=O)Nc3cc(N4CCN(C)CC4)cc(C(F)(F)F)c3)ccc2C)ncn1 | Dual specificity mitogen-activated protein kinase kinase 4 (MAP2K4, Homo sapiens, UniProt P45985) | probe labelling, KiNativ | Huh-7, live cells | 1 µM, Lys2 site, peptide DIKPSNILLDR |  | inhibition | -97.6% |
| CC(C)[C@H](NC(=O)OCc1ccccc1)C(=O)N[C@H](C=O)Cc1ccccc1 | Genome polyprotein NS3 helicase domain | DNA binding, inhibitor | hepatitis C virus | 100 µM, with: Cy5-dT15 DNA |  | inhibition | 1% |
| CCc1oc2ccccc2c1C(=O)c1cc(Br)c(O)c(Br)c1 | Solute carrier family 22 member 12 (SLC22A12, Homo sapiens, UniProt Q96S37, F365A) | urate uptake | HEK293T | 0.5 µM, 10 min, 37 °C, with: 200 µM [14C]urate |  | inhibition | 38.2% and 60.8% and 34.8% and 66.9% and 53.8% and 65% |
| CC12CC3CC(C)(C1)CC(N)(C3)C2 | KCNQ3/KCNQ2 | ion current, antagonist, SyncroPatch patch clamp | HEK293 | 30 µM |  | inhibition | 29% |
| COc1cccc(OC[C@@H]2CN(CCN3CCc4ccccc43)CCO2)c1 | DRD3 | radioligand binding |  | concentration not given, with: [3H]N-methylspiperone |  | inhibition | 48.2% |
| O=C1NC(=O)C(c2ccccc2)(c2ccccc2)N1 | KCNQ3/KCNQ2 | ion current, antagonist, SyncroPatch patch clamp | HEK293 | 30 µM |  | inhibition | 5% |
| CCc1ccccc1OC[C@@H](O)CN[C@H]1CCCc2ccccc21.O=C(O)C(=O)O | Genome polyprotein NS3 helicase domain | DNA binding, inhibitor | hepatitis C virus | 100 µM, with: Cy5-dT15 DNA |  | inhibition | 0% |
| Cc1ccc(C(=O)Nc2ccc3ccccc3c2)o1 | Acid-sensing ion channel 1 (Asic1, Rattus norvegicus, UniProt P55926) | ion current, whole-cell patch-clamp |  | 10 µM, rASIC1a |  | inhibition | 5.13% |
| CN1CC(Oc2cnc(C#N)cc2-c2ccn3nc(NC(=O)C4CC4)cc3c2)C1 | Protein kinase C beta type, beta-I isoform (PRKCB, Homo sapiens, UniProt P05771) | kinase activity |  | 1 µM |  | inhibition | 9% |
| O=C(NO)c1ccc(CN2CCCCc3ccccc32)c(F)c1 | DRD3 | radioligand binding, radioligand displacement |  | 10 µM, mean of replicates |  | inhibition | 42.8% |
| Cn1c(=O)c2[nH]cnc2n(C)c1=O | KCNQ3/KCNQ2 | ion current, antagonist, SyncroPatch patch clamp | HEK293 | 10 µM |  | inhibition | 7% |
| Br.CN=c1nc(-c2ccccc2)n(-c2ccccc2)s1 | Genome polyprotein NS3 helicase domain | DNA binding, inhibitor | hepatitis C virus | 100 µM, with: Cy5-dT15 DNA |  | inhibition | 8% |
| Cn1cc(-n2cnc3c(NCc4nc5cc(Cl)c(Cl)cc5[nH]4)nc(N4CCOCC4)nc32)cn1 | Cyclin-dependent kinase 12, with cyclin K (CDK12, Homo sapiens, UniProt Q9NYV4) | kinase activity, inhibitor, ADP-Glo |  | 0.0741 µM |  | inhibition | 46.3% |
| CCCN1C[C@H](CSC)C[C@@H]2c3cccc4[nH]cc(c34)C[C@H]21 | Glutamate receptor 2 | ion current, negative allosteric modulator, SyncroPatch patch clamp | HEK293 | 3 µM |  | inhibition | 11% |
| COc1cc2nccc(Oc3ccc(NC(=O)c4cc5c(n(-c6ccccc6)c4=O)CCCC5=O)nc3)c2cc1OC | Tyrosine-protein kinase Mer (MERTK, Homo sapiens, UniProt Q12866) | inhibitor | human patients | 6 mg once daily, day 29, combination with venetoclax |  | inhibition | 79 to 81% |
| C[C@H]1c2nc3ccccc3c(-c3ccccc3)c2[C@H]2C[C@@H]1N(Cc1ccccc1)C[C@]2(C)O | Kappa-type opioid receptor (OPRK1, Cavia porcellus, UniProt P41144) | binding, radioligand binding | guinea pig brain | 1 µM, with: [3H]U-69,593 |  | inhibition | 0% |
